Measurements pooled from the literature.
Protocols differ between the studies behind these lines.
Cell line: HCT-116

Nc1ncc(-c2nc(N3CCOCC3)nc(N3CCOCC3)n2)c(C(F)F)n1
GI50 (72 h): 114 nM

CCN(CC)c1ccc(C=NNC(=O)CSc2nc3ccccc3c(=O)n2Cc2ccc(S(N)(=O)=O)cc2)c(O)c1
CC50 (NCI five-dose screen): > 100000 nM

CCOP1(=O)CC=Cc2cc(N)ccc2O1 (stereo not shown)
maximal inhibition (cell proliferation, MTT; 100 µM, 72 h, normoxia): 10 to 15%

CC(C)N1CCC(NC2CCN(c3cccc(-c4cc5cc(F)ccc5[nH]4)c3)CC2)CC1
GI50: 1280 nM

COc1cc(CCC[P+](c2ccccc2)(c2ccccc2)c2ccccc2)c(OC)c2c1OCO2.[I-]
GI50 (SRB): -6 log M

COc1ccc(C(=O)Nc2ccc3c(c2)C=CCP(=O)(O)O3)cc1
maximal inhibition (cell proliferation, MTT; 100 µM, 72 h, normoxia): ~30%

Nc1nc2nc[nH]c2c(=S)[nH]1
surviving fraction (clonogenic; 0.3125 µM, 10 days): 0.985

COc1c(C)c2c(c(O)c1C/C=C(\C)CCC(=O)O)C(=O)OC2
IC50 (cell proliferation; colon cancer): 562 nM

COc1c(CCC[P+](c2ccccc2)(c2ccccc2)c2ccccc2)cc2c(c1OC)OCO2.[I-]
LC50 (SRB): > -4 log M

O=C1CCP(=S)(c2ccccc2)CC1
inhibition (ELISA, measured: IL-6 secretion; IC50 concentration): 71.8 to 96.8%
